Results of several laboratories.
Each line is one published result; not all experiments were run side by side. Numbers after ± are the reported error.
Cell line: MCF7

COc1cc(/C=C/C=O)ccc1O  IC50 (cell growth or viability, MTT): > 30 µM
CC(=O)N[C@H](CCCNC(=N)N)C(=O)N[C@@H](CC(=O)N[C@H](Cc1ccccc1)C(N)=O)c1ccc2ccccc2c1  IC50 (cell growth or viability, ATP luminescence; 72 h): 5.11 µM
Cc1nnc2c3c(-c4ccc5ccccc5n4)cc(-c4ccccc4)nc3n3c(C)nnc3n12  IC50 (cell growth or viability, MTT; 48 h): 7.5 µM
CC(C)=CCc1c(O)cc2oc3cc(O)c(O)c(CC=C(C)C)c3c(=O)c2c1O  IC50 (cell growth or viability; 48 h): 5.33 µM
CSc1nc(Nc2cccc(/C(C)=N/NC(=O)c3ccccc3)c2)c(C#N)c(-c2ccccc2)n1  IC50 (cell growth or viability, MTT; 48 h): 25.2 µM
COc1ccc2c(c1)OCc1c-2oc2cc3c(cc12)OCO3  IC50 (cell growth or viability, MTT; 72 h): 21.1 µM
N=C(N)NCCC[C@H](N)C(=O)N[C@@H](Cc1ccc(O)cc1)C(=O)N[C@@H](Cc1c[nH]c2ccccc12)C(=O)N[C@@H](Cc1ccc(O)cc1)C(=O)NCC(N)=O  IC50: > 100 µM
CSC(S)(NN)NN=C(C)c1ccc(S(=O)(=O)N2CCC(C)CC2)cc1 (stereo not shown)  IC50 (cell growth, MTT): 24.6 to 122 µM
Cc1ccc(S(=O)(=O)[O][Re-2]2(=[C]=O)(=[C]=O)(=[C]=O)[n+]3c(C)cc(-c4ccccc4)c4ccc5c(-c6ccccc6)cc(C)[n+]2c5c43)cc1  IC50 (cell growth or viability, resazurin; 72 h): 0.337 µM
O=C(c1ccc2ccccc2c1)c1cn(-c2ccccc2)nc1C1=Nn2c(CCCc3nnc4n3N=C(c3nn(-c5ccccc5)cc3C(=O)c3ccc5ccccc5c3)CS4)nnc2SC1  IC50 (cell growth or viability, MTT; 48 h): 9.15 µM
COc1ccc(COC[C@](O)(CNCc2ccc(F)cc2)[C@@H]2CC[C@@H](C)C[C@H]2OCc2ccc(OC)cc2)cc1  IC50 (cell growth or viability, MTT; 72 h): 1.3 µM
C=CCc1ccc(OC(C)=O)c(OC)c1  IC50 (MTT; 24 h): > 50 µM
O=C(CCc1nc2cc(Cl)ccc2[nH]c1=O)NN1C(=O)c2ccccc2C1=O  IC50 (cell growth or viability, MTT): 25.9 µM
CC(C)(C)c1cc2c(O)c(c1)Cc1cc(C(C)(C)C)cc(c1OCC(=O)NCc1ccncc1)Cc1cc(C(C)(C)C)cc(c1O)Cc1cc(C(C)(C)C)cc(c1OCC(=O)NCc1ccncc1)COC2  IC50 (cell growth or viability, MTT; 72 h): 1.2 µM
CCCCCCCCCCn1c(-c2cccnc2)nc(-c2ccc(C)cc2)c1-c1ccc(C)cc1  IC50 (cell growth or viability, SRB; 24 h): > 100 µM
CCC1=C(CC)C2=[N+]3C1=Cc1c(CC)c(CC)c4[n]1[Ir-3]31([C]#[N+]c3ccc(OC)cc3)([C]#[N+]c3ccc(OC)cc3)[n]3c(c(CC)c(CC)c3=CC3=[N+]1C(=C4)C(CC)=C3CC)=C2.F[B-](F)(F)F  IC50 (cell growth or viability, MTT; 72 h): > 100 µM
Cc1c(C)c(C)[c-](C)c1C.OCc1ccnc(-c2[c-]cccc2)c1.[Cl-].[Ir+3]  IC50 (SRB; 24 h, 72 h recovery): 47 ± 2 µM
CCNC(=O)NC(=O)COC(=O)c1cn(-c2ccccc2)nc1-c1ccc(C)cc1C  IC50 (cell growth or viability, MTT; 24 h): 143 µM
O=[C]=[Re-2]1(=[C]=O)(=[C]=O)([O]C(=O)c2ccccc2Nc2cccc(C(F)(F)F)c2)[n+]2ccc(-c3ccccc3)c3ccc4c(-c5ccccc5)cc[n+]1c4c32  IC50 (cell growth or viability, resazurin; 72 h): 2.75 µM
C/C(=N\N=C1/NC(=O)CS1)c1c(O)c2ccccc2oc1=O  IC50 (cell growth or viability, MTT; 48 h): 26.3 µM
Cc1ccc(-c2noc(-c3cccs3)c2C(F)(F)F)cc1  IC50 (cell growth or viability, MTT; 48 h): 24.2 µM
CCCC(CCC)C(=O)[O][Pt]1([O]C(=O)C(CCC)CCC)[O]C(=O)C(=O)[O]1.NC1CCCCC1N  IC50 (cytotoxicity; 72 h): 5.7 ± 0.9 µM
COc1ccc2cc3[n+](cc2c1OCc1cn(Cc2ccc(C(C)(C)C)cc2)nn1)CCc1cc2c(cc1-3)OCO2  IC50 (cell growth or viability, MTT): 15.8 µM
CCC(CCC(C)C1CCC2C3CCC4=CC(=O)CCC4(C)C3CCC12C)C(C)C (stereo not shown)  IC50 (cell growth or viability, resazurin; 24 h): 169 µg/mL
CC(C)(C)c1ccc(C[n+]2cn(C3CCCC3)c3ccccc32)cc1  IC50 (cell growth or viability, MTT; 48 h): 22 µM
CCOc1cccc2c1[O][Pt-2]1([Cl])[N+](=C2)c2ccccc2[NH+]1c1ccccc1 (stereo not shown)  IC50 (cell growth or viability, MTT): 11 µM
CCCCCCCCCCCCCCCC(=O)Oc1ccc(CO)cc1OC(C)=O  IC50 (cell viability, MTT; 48 h, serum-free medium): 4.1 ± 0.5 µg/mL
O=C(NCCCCCCCNc1n[n+]([O-])c2ccccc2[n+]1[O-])C(F)(F)F  IC50 (cytotoxicity, MTT; 10% FBS medium; 6 h + 18 h, hypoxia 3% O2): 42.2 ± 0.3 µM
CCCCCCCCCCOc1c(O)cc(C(=O)O[C@@H]2Cc3c(O)cc(O)cc3O[C@@H]2c2cc(O)c(O)c(O)c2)cc1O  IC50 (cell growth or viability, CCK-8; 24 h): 99 µM
CC1=CC(C)=[O+][Pt-2]([NH3+])([NH3+])[O]1.CC1=CC(C)=[O+][Pt-2]([NH3+])([NH3+])[O]1.O=S(=O)([O-])[O-] (stereo not shown)  IC50 (cell growth or viability, MTT): 76 µM
N#C[CH2][Pd]1[O]c2ccccc2C=Nc2cccnc2[N]1Cc1ccccc1  IC50 (cell growth or viability, MTT; 48 h): 20.8 µM
CC/C(=C(\c1ccccc1)c1ccc(OCCN(C)CCCCC(=O)NCCc2c[nH]c3ccc(OC)cc23)cc1)c1ccccc1  IC50 (cell survival, MTT; day 9, dosed days 2, 4, 7): 2.1 µM
CCC(C(=O)O)C1CCC(C)C(C(C)C(O)C(C)C(=O)C(CC)C2OC3(C=CC(NCc4cn(COC(=O)C(C)(C)C)nn4)C4(CCC(C)(C5CCC(O)(CC)C(C)O5)O4)O3)C(C)CC2C)O1 (stereo not shown)  IC50 (cell growth or viability, resazurin; 72 h): 2.91 µM
C[S+](C)([O-])[Pt-2]([Cl])([Cl])[N+](=Cc1ccc[nH]1)Cc1ccccc1  IC50 (cell growth or viability, MTT; 24 h): 23.3 µg/mL
CCCCn1cc(C(=O)O)c(=O)c2cc(F)c(Nc3ccc(OC)cc3)c(N)c21  IC50 (cell growth or viability, SRB; 72 h): 6.45 µg/mL
COc1cc2ncnc(Nc3ccc(F)c(Cl)c3)c2cc1NC(=O)N/N=C/c1ccc[nH]1  IC50 (cell growth or viability, MTT; 72 h): 9.31 µM
COc1cccc(CNC[C@](O)(COCc2ccccc2)[C@@H]2CC[C@@H](C)C[C@H]2OCc2ccccc2)c1  IC50 (cell growth or viability, MTT; 72 h): 0.68 µM
COc1cc(/C=C/C(=O)CC(C)=O)ccc1O  IC50 (cell growth or viability, MTT; 48 h): 35 µM
NS(=O)(=O)c1ccc(/N=N/c2ccc(O)c(/C=N/c3nccs3)c2)cc1  IC50 (cell growth or viability, MTT; 72 h): 6.82 µM
O=[N+]([O-])c1cnccc1N1c2cccnc2Sc2cccnc21  IC50 (cell growth or viability, WST-1; 72 h): < 5 µg/mL
CCCCCCCCCCCCCCCCn1c(-c2cccnc2)nc(-c2ccc(C)cc2)c1-c1ccc(C)cc1  IC50 (cell growth or viability, SRB; 48 h): > 100 µM
C=CC(=C)CC[C@]1(C)[C@H](C)C[C@H](OC(=O)CCCCCCC)[C@@]23C(=C[C@H](OC(C)=O)C[C@@H]12)[C@@H](OC(C)=O)O[C@H]3OC(C)=O  IC50 (cell growth or viability, SRB): 6.39 µM
C=CCc1ccc(OCc2nnc(SCC(=O)Nc3ccc(F)cc3F)o2)c(OC)c1  IC50 (cell growth or viability, MTT; 72 h): 2.87 µM
CC(=O)N[C@@H]1[C@@H](OC(C)=O)[C@H](OC(C)=O)[C@@H](COC(C)=O)O[C@H]1Sc1nnc(-c2cc3ccccc3[nH]2)n1-c1ccc(Cl)cc1  IC50 (cell growth or viability, MTT): 12.7 µM
C[C@]12CC/C(=N\OCCN3CCCCC3)C=C1CCC1C2CC[C@]2(C)/C(=C/c3ccccn3)CCC12 (stereo partly shown)  IC50 (cell growth or viability, MTT; 72 h): > 100 µM
C=C(C)[C@@H]1CC[C@]2(COC(=O)CCC(=O)O)CC[C@]3(C)[C@H](CC[C@@H]4[C@@]5(C)CC[C@H](OC(=O)CCC(=O)O)C(C)(C)[C@@H]5CC[C@]43C)[C@@H]12  IC50 (cell growth or viability, SRB; 72 h): 7.26 µg/mL
COc1c(OC(C)=O)cc2oc3cc(OC(C)=O)c(CC=C(C)C)c(O)c3c(=O)c2c1CC=C(C)C  IC50 (cell growth or viability; 48 h): 16.6 µM
COc1cccc2cc(C(=O)NNc3nc(-c4ccccc4)cs3)c(=O)oc12  IC50 (cell growth or viability, SRB; 72 h): 187 µM
CSc1nc(Nc2ccc(/C(C)=N/NC(=O)c3cccc(Cl)c3)cc2)c(C#N)c(-c2ccccc2)n1  IC50 (cell growth or viability, MTT; 48 h): 10.9 µM
COc1ccc(/C(=C(/CCn2cc(CN3C(=O)C4(OCCO4)c4cc(Br)ccc43)nn2)c2ccccc2)c2ccccc2)cc1  IC50 (cell growth or viability, MTT): > 100 µM
Cc1c(C)n(-c2c(C(C)C)cccc2C(C)C)c(=[Se])n1-c1c(C(C)C)cccc1C(C)C.[Cl][Ag]  IC50 (cell growth or viability, MTT; 72 h): 1.6 µM
C1=CCC=C1.[Cl][Au-]1([Cl])[N+](=P(c2ccccc2)(c2ccccc2)[c-]2cccc2)Cc2cccc[n+]21.[Fe+2].[O-][Cl+3]([O-])([O-])[O-]  IC50 (cell growth or viability, MTT; 74 h): 40 µM
CN1CCC2(CC1)C/C(=N\NC(=O)Nc1ccc(Cl)cc1)c1ccccc1O2  IC50 (cell growth or viability, MTT; 48 h): 2.9 µM
COc1ccc2cc3[n+](cc2c1OCc1cn(Cc2ccc(Cl)cc2)nn1)CCc1cc2c(cc1-3)OCO2  IC50 (cell growth or viability, MTT): 45.9 µM
CC(=O)[O-].O.O.O.O.[Ni+2].[O-]c1ccc(Br)cc1C=NCCN1CCOCC1  IC50 (cell viability, MTT; 72 h): 24.1 µg/mL
